Assay results gathered from unrelated publications.
A part holds a random share of what one study measured. Several values in a cell are separate wells, animals, samples, runs or records.

Series 1 — cell line: HaCaT; concentration: 100 µM; time: 60 h
| Compound | viability |
| --- | --- |
| Cc1cn([C@H]2O[C@@H](CO)[C@H](O)[C@H]2F)c(=O)[nH]c1=O | 116% |
| CCCCNC(=O)NS(=O)(=O)c1ccc(C)cc1 | 122% |
| C/C=C1\[C@H]2C=C(C)C[C@]1(N)c1ccc(=O)[nH]c1C2 | 143% |
| CN(C)CCc1c[nH]c2ccc(Cn3cncn3)cc12 | 120% |
| CN[C@@H]1[C@@H](O[C@H]2O[C@H](CO)[C@@H](N)[C@H](O)[C@H]2O)O[C@H]2C[C@@H](N)[C@@H](O[C@H]3[C@H](O)[C@@H](O)[C@H](N)C[C@@H]3N)O[C@@H]2[C@@H]1O | 118% |
| COc1cc2c(cc1OC)[C@H]1CC(=O)[C@H](CC(C)C)CN1CC2 (racemic) | 83.2% |
| O=C1C(CC[S+]([O-])c2ccccc2)C(=O)N(c2ccccc2)N1c1ccccc1 (centres unmarked) | 137% |
| Cc1c(Cl)cccc1Nc1ccccc1C(=O)O | 99.1% |

Series 2 — observed: enzyme activity; mode: inhibitor; concentration: 0.5 µM; relative to: control
Target: Dual specificity tyrosine-phosphorylation-regulated kinase 1A (DYRK1A, Homo sapiens, UniProt Q13627)
| SMILES | remaining activity |
| --- | --- |
| O=C1NC(=O)/C(=C/c2ccc3c(c2)OC(F)(F)O3)S1 | 84.6% |
| COc1cc2c(N3CCN(C(=O)Nc4ccc(OC(C)C)cc4)CC3)ncnc2cc1OCCCN1CCCCC1 | 104% |
| Clc1ccc(Nc2nnc(Cc3ccncc3)c3ccccc23)cc1 | 102% |
| O=C(O)/C=C/c1cc(Br)c(Br)c(Br)c1Br | 74.8% |
| O=c1c(-c2ccc(F)cc2)c(-c2ccncc2)[nH]n1-c1ccc(Cl)cc1 | 89.8% |
| CCCCc1c(-c2ccc(O)cc2)[nH]c2nccnc12 | 92.9% |
| CC(C)n1cnc2c(Nc3cccc(Cl)c3)nc(NCCO)nc21 | 88.6% |
| FC(F)(F)c1ccc(/C=C/c2nc(COc3ccc(CCCCn4ccnn4)cc3)co2)cc1 | 105% |
| NC(=O)c1ccc(-c2nc(-c3ccc4c(c3)OCCO4)c(-c3ccccn3)[nH]2)cc1 | 109% |
| C[C@@H](N)[C@H]1CC[C@H](C(=O)Nc2ccncc2)CC1 | 101% |
| c1cc(-c2cnn3cc(-c4ccc(OCCN5CCCCC5)cc4)cnc23)ccn1 | 20.7% |

Series 3 — concentration: 1 µM; relative to: DMSO
Structure (SMILES): CN(C)C(=O)Cn1cc(-c2ccc(-c3nnc4ccccn34)cc2)cn1
| cell line | setting | viability [%] |
| --- | --- | --- |
| sample B colorectal tumour organoid | replicate 1 | 114 |
| sample BA colorectal tumour organoid | – | 151 |
| sample C colorectal tumour organoid | replicate 1 | 89.9 |
| sample B colorectal tumour organoid | replicate 2 | 106 |
| colorectal tumour organoids | – | 113 |
| sample C colorectal tumour organoid | replicate 2 | 110 |

Series 4 — host: C57BL/6 CES1-/- mice, EL4 tumour; route: subcutaneous; dose: 0.3 mg/kg/day DON equivalent; time: 5 days
Compound: CC(=O)N[C@@H](Cc1c[nH]c2ccccc12)C(=O)N[C@@H](CCC(=O)C=[N+]=[N-])C(=O)OC(C)C
| assay | system | setting | scale | metabolite peak intensity |
| --- | --- | --- | --- | --- |
| LC-MS/MS metabolomics, refers to: 2,6-dihydroxybenzoic acid | EL4 tumour | normalised to tissue mass | higher = more metabolite | 128000 a.u. and 326000 a.u. and 144000 a.u. and 76000 a.u. and 269000 a.u. and 114000 a.u. |
| UPLC-MS/MS, refers to: malate | EL4, tumour | normalised to tissue mass | higher = more metabolite | 3.18e+09 a.u. and 5.08e+09 a.u. and 3.97e+09 a.u. and 2.69e+09 a.u. and 3.02e+09 a.u. and 4.03e+09 a.u. |
| UPLC-MS/MS metabolomics, refers to: glutamate gamma-methyl ester | EL4 tumour | normalised to tissue mass | – | 1.72e+07 a.u. and 2.8e+07 a.u. and 1.81e+07 a.u. and 2.15e+07 a.u. and 2.07e+07 a.u. and 3.49e+07 a.u. |
| LC-MS/MS metabolomics, refers to: pipecolate | EL4 tumour | – | higher = more metabolite | 1.57e+08 a.u. and 1.25e+08 a.u. and 8.42e+07 a.u. and 1.12e+08 a.u. and 3.63e+07 a.u. and 5.66e+07 a.u. |
| UPLC-MS/MS metabolomics, refers to: gamma-glutamyl-epsilon-lysine | EL4 tumour | normalised to tissue mass | – | 8.64e+06 a.u. and 9.01e+06 a.u. and 5.12e+06 a.u. and 6.7e+06 a.u. and 2.38e+06 a.u. and 1.11e+07 a.u. |
| LC-MS/MS metabolomics, refers to: 3-hydroxykynurenine | EL4 tumour | normalised to tissue mass | higher = more metabolite | 186000 a.u. and 143000 a.u. and 563000 a.u. and 353000 a.u. |
| UPLC-MS/MS metabolomics, refers to: N-acetylglycine | EL4 tumour | normalised to tissue mass | higher = more metabolite | 2.84e+06 a.u. and 3.12e+06 a.u. and 2.94e+06 a.u. and 2.8e+06 a.u. and 1.34e+06 a.u. and 2.06e+06 a.u. |
| UPLC-MS/MS metabolomics, refers to: N-acetylasparagine | EL4 tumour | normalised to tissue mass | higher = more metabolite | 1.59e+06 a.u. and 1.74e+06 a.u. and 1.98e+06 a.u. and 1.5e+06 a.u. and 969000 a.u. and 1.33e+06 a.u. |
| UPLC-MS/MS, refers to: indolelactate | EL4, tumour | normalised to tissue mass | higher = more metabolite | 664000 a.u. and 329000 a.u. and 692000 a.u. and 372000 a.u. and 487000 a.u. |
| UPLC-MS/MS, refers to: indolepropionate | EL4, tumour | normalised to tissue mass | higher = more metabolite | 452000 a.u. and 563000 a.u. and 1.25e+06 a.u. and 853000 a.u. and 308000 a.u. and 741000 a.u. |

Repeated from above (series 2):
| SMILES | remaining activity |
| --- | --- |
| COc1cc2c(N3CCN(C(=O)Nc4ccc(OC(C)C)cc4)CC3)ncnc2cc1OCCCN1CCCCC1 | 104% |
| Clc1ccc(Nc2nnc(Cc3ccncc3)c3ccccc23)cc1 | 102% |
| O=C(O)/C=C/c1cc(Br)c(Br)c(Br)c1Br | 74.8% |
| O=c1c(-c2ccc(F)cc2)c(-c2ccncc2)[nH]n1-c1ccc(Cl)cc1 | 89.8% |
| CCCCc1c(-c2ccc(O)cc2)[nH]c2nccnc12 | 92.9% |
